Assay results pooled from the literature.
Compare with care: the assays were run in different laboratories. ± marks the error that the study gave.

| test | test system | conditions | Cmax | Compound |
| --- | --- | --- | --- | --- |
|  | Sprague-Dawley rat, male, plasma | oral, 20 mg/kg | 3550 ng/mL | O=C(NS(=O)(=O)c1cccs1)c1cc2ccccc2n1Cc1ccc(Br)c2ccccc12 |
|  | Sprague-Dawley rat, both sexes, plasma | intravenous infusion, 6 mg/kg, multiple doses, day 1 | 4150 ± 1090 ng/mL | C=C(NC(=O)c1csc(-c2nc3c(cc2O)-c2nc(cs2)C(=O)NC(C(C)O)C(=O)NC(=C(C)OC)c2nc(cs2)C(=O)NC2c4nc(cs4)C(=O)NC(COC(=O)c4c5c6c(cccc6n4O)COC(=O)C(OC4CC(C)(O)C(N(C)C)C(C)O4)C2OC5)c2nc-3cs2)n1)C(N)=O (centres unmarked) |
|  | Sprague-Dawley rat, male, anaesthetised, plasma | intravenous step infusion, 100 mg/kg, 85 min | 332000 ng/mL | Cc1c(-c2ccc(N3CCc4cccc(C(=O)Nc5nc6ccccc6s5)c4C3)nc2C(=O)O)cnn1CC12CC3CC(CC(C3)C1)C2 |
|  | Sprague-Dawley rats, both sexes, whole blood | intravenous, 1.25 mg/kg single dose | 3780 ± 931 ng/mL | CCCC[C@H](OC(C)=O)c1ccccc1C(=O)O |
|  | male Sprague-Dawley rats, plasma | intravenous, 1 mg/kg, citrate ester | 4.12 µM | COCCN(C)CC(=O)NC(Cc1ccc(-c2ccccc2)cc1)B(O)O (centres unmarked) |
|  | Sprague-Dawley rat, both sexes, plasma | oral gavage, 5 mg/kg, day 1 | 361 ± 40.3 ng/mL | OC1(C(F)(F)F)CCN(c2nc(Nc3ccnc(C(F)(F)F)c3)nc(-c3cccc(C(F)(F)F)n3)n2)C1 (centres unmarked) |
|  | Sprague-Dawley rat, plasma | intravenous, 10 mg/kg | 70500 ± 24300 ng/mL | CC1(C)C(NC(=O)C(=NOC2(C(=O)O)CCC2)c2csc(N)n2)C(=O)N1OS(=O)(=O)O (centres unmarked) |
|  | Sprague-Dawley rat, male, plasma | oral, 3 mg/kg | 321 ng/mL | C/C(N)=N/C(=N\S(=O)(=O)c1ccc(C(F)(F)F)cc1)N1C[C@H](c2ccccc2)C(c2ccc(Cl)cc2)=N1 |
|  | Sprague-Dawley rat, male, obese, plasma | intravenous, 4 mg/kg | 5.01 ± 0.542 ng/mL | COc1ccc([C@@H]2CC(=O)c3c(O)cc(O[C@@H]4O[C@H](CO)[C@@H](O)[C@H](O)[C@H]4O[C@@H]4O[C@@H](C)[C@H](O)[C@@H](O)[C@H]4O)cc3O2)cc1O |
| LC-MS/MS | Sprague-Dawley rats, both sexes, plasma | subcutaneous, 10 mg/kg/day, day 27 | 257 ng/mL | CC[C@H](C)[C@H](NC(=O)[C@H](Cc1ccc(O)cc1)NC(=O)[C@@H](NC(=O)[C@H](CCCNC(=N)N)NC(=O)[C@@H](N)CC(=O)O)C(C)C)C(=O)N[C@@H](Cc1c[nH]cn1)C(=O)N1CCC[C@H]1C(=O)O |
|  | rat, plasma | oral, 217 mg/kg Pc extract, dosed as Pc extract | 488 ± 224 ng/mL | O=C(O)/C=C\c1cc2ccoc2cc1O[C@@H]1O[C@H](CO)[C@@H](O)[C@H](O)[C@H]1O |

Excerpt of the above:
| test | test system | conditions | Cmax | Compound |
| --- | --- | --- | --- | --- |
|  | male Sprague-Dawley rats, plasma | intravenous, 1 mg/kg, citrate ester | 4.12 µM | COCCN(C)CC(=O)NC(Cc1ccc(-c2ccccc2)cc1)B(O)O (centres unmarked) |
|  | Sprague-Dawley rat, male, anaesthetised, plasma | intravenous step infusion, 100 mg/kg, 85 min | 332000 ng/mL | Cc1c(-c2ccc(N3CCc4cccc(C(=O)Nc5nc6ccccc6s5)c4C3)nc2C(=O)O)cnn1CC12CC3CC(CC(C3)C1)C2 |
